Measured values gathered from unrelated publications.
Parts stem from different laboratories: compare values within a part only. “And” joins repeats or separate records; there may be more than shown.
Sequence of UniProt Q7Z7M1 (whole entry, looked up): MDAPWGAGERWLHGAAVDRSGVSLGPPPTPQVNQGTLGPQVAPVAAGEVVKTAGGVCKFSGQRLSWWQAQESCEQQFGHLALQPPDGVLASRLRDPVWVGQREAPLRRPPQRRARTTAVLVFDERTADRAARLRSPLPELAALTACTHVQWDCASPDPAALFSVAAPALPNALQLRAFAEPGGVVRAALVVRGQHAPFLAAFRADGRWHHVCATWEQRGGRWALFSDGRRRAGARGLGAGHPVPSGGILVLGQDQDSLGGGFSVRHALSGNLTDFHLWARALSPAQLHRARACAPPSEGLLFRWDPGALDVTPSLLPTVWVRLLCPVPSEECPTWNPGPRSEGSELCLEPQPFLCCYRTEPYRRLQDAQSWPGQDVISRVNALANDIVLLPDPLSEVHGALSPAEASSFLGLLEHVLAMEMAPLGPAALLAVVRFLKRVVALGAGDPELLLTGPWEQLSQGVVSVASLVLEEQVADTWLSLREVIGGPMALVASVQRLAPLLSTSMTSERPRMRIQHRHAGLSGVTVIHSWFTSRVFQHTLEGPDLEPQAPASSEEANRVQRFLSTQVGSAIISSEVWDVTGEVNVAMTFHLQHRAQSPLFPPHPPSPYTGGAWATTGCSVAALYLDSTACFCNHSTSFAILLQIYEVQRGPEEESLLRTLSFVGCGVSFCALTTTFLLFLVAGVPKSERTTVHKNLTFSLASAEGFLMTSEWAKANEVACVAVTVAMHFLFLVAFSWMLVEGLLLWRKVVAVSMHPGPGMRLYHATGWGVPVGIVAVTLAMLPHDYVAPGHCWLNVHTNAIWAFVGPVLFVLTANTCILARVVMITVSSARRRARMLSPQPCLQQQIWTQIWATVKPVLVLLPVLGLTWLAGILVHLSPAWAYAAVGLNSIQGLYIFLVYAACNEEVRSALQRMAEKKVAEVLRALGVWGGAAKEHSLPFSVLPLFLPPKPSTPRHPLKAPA
Sequence of UniProt Q9H2S9 (whole entry, looked up): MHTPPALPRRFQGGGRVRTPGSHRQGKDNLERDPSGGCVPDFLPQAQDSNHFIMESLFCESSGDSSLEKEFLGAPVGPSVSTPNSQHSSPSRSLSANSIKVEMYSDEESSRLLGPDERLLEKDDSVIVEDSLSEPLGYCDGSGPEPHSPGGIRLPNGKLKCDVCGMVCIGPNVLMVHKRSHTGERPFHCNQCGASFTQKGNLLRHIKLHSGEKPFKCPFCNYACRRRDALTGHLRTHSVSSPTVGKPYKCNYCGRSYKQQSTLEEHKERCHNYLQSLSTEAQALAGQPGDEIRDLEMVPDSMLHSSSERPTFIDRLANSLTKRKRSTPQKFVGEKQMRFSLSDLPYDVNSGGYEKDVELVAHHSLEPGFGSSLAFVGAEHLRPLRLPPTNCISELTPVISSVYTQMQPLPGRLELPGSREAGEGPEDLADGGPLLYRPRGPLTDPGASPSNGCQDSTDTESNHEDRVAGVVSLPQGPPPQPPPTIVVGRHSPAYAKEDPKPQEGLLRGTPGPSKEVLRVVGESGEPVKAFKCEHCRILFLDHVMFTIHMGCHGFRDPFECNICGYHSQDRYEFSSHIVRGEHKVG
Sequence of UniProt Q9Y2T5 (whole entry, looked up): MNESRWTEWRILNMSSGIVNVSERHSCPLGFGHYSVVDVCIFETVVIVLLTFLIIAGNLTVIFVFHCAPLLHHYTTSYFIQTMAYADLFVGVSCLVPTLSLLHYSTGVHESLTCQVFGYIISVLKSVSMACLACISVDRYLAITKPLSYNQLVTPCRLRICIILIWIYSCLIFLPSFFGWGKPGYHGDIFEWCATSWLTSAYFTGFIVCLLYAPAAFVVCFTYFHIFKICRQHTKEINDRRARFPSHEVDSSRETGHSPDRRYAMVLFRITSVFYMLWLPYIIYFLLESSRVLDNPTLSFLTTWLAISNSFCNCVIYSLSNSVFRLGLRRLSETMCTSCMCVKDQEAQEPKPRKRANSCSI
Sequence of UniProt Q7Z602 (whole entry, looked up): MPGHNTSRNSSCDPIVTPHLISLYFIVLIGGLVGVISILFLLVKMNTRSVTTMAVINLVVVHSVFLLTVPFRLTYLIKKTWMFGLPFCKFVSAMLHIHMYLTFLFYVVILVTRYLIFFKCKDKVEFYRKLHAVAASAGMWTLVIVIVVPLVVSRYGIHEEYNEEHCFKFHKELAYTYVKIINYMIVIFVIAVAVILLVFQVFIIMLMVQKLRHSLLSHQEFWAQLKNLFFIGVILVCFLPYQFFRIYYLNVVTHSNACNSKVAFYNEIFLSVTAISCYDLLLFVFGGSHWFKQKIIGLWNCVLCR
Sequence of UniProt Q8IZF7 (whole entry, looked up): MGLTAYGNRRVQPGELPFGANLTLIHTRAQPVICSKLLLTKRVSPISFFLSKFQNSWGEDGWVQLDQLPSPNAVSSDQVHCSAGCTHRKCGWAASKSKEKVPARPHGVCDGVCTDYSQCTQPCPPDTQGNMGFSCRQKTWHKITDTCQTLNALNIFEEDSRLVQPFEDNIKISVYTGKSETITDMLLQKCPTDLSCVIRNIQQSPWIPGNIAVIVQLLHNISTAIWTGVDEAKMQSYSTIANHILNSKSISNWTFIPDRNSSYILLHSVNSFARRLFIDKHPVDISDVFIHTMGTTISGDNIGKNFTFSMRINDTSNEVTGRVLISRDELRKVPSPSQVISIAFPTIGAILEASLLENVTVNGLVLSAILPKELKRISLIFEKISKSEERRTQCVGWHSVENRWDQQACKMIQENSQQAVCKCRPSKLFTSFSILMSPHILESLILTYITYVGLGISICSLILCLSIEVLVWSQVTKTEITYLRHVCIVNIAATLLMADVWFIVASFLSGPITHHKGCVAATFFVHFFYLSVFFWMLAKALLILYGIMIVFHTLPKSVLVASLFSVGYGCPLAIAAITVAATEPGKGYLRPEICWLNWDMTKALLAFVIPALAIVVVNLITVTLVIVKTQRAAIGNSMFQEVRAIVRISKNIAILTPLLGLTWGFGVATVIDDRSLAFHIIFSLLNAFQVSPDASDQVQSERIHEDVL

Series 1
Organism: Sarcocystis neurona
Effect on: parasite growth
Tested at: 10 µM
Time: 96 h
Reference: untreated
Under “log2 fold change”, `CCOC(=O)CCC(=O)O[C@H]1[C@H](O[C@@H]2[C@@H](C)[C@H](O[C@H]3C[C@@](C)(OC)[C@@H](O)[C@H](C)O3)[C@@H](C)C(=O)O[C@H](CC)[C@@](C)(O)[C@H](O)[C@@H](C)C(=O)[C@H](C)C[C@@]2(C)O)O[C@H](C)C[C@@H]1N(C)C` is recorded as -0.31.
For `OCCN1CCN(CCCN2c3ccccc3Sc3ccc(C(F)(F)F)cc32)CC1`, “log2 fold change” read -3.12.
`CC(C)(C)NC[C@H](O)COc1nsnc1N1CCOCC1`: “log2 fold change” 0.39.
`C[C@H]1C[C@@H]2[C@H]([C@@H](O)C[C@@]3(C)[C@H]2CC[C@]3(O)C(=O)CO)[C@@]2(C)C=CC(=O)C=C12`: “log2 fold change” 0.26.
For `C[C@@H]1CN(CCCn2c3ccccc3c3ccccc32)C[C@H](C)N1`, “log2 fold change” read -0.19.
For `CC(C)c1nc(CN(C)C(=O)N[C@H](C(=O)N[C@@H](Cc2ccccc2)C[C@H](O)[C@H](Cc2ccccc2)NC(=O)OCc2cncs2)C(C)C)cs1`, “log2 fold change” read -0.56.
For `CCC1(c2ccccc2)C(=O)NCNC1=O`, “log2 fold change” read 0.34.
Under “log2 fold change”, `O=C(O)COCCN1CCN(C(c2ccccc2)c2ccc(Cl)cc2)CC1` (stereo not shown) is recorded as -0.44.

Series 2
Target: Beta-3 adrenergic receptor (ADRB3, Homo sapiens, UniProt P13945)
Sequence of UniProt P13945 (whole entry, looked up): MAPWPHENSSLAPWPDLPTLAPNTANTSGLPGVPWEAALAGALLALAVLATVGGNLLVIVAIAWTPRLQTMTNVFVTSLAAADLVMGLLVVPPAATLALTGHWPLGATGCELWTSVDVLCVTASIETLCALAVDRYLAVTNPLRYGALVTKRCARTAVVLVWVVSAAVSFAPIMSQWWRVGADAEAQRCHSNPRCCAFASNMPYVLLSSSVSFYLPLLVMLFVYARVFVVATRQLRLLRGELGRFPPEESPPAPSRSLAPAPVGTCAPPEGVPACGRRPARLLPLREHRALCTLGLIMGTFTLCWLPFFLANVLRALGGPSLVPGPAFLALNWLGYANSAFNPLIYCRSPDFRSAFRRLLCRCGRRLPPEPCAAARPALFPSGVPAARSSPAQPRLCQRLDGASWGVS
Effect on: ligand displacement
Tested at: 10 µM
`CN1CCN(c2cnc3c(C4CCN(C(=O)c5ccc(OC(F)(F)F)cc5N)CC4)ncnc3c2)CC1` gave an inhibition of -19.7%.
The inhibition of `c1ccc(C2CCN(c3cnc4c(N5CCOCC5)nccn34)CC2)cc1` is reported as 2.32%.
The inhibition of `O=c1nc(-c2ccccn2)sc2ccccc12` is reported as 20.1%.
`CN1CCN(C(=O)C(C)(C)c2ccc(C(=O)Nc3cn4cc(-c5cc(C(C)(C)C)cc(C(C)(C)C)c5)ccc4n3)cc2)CC1` gave an inhibition of 78.1%.
`CCC(=NO)C(C)=Cc1ccc(F)c(C)c1` gave an inhibition of 11.1%.
With `CC1CCN(c2ccnc(NCc3cn(C)cn3)n2)CC1` the inhibition was -18.3%.
The inhibition of `CN1CCN(c2ccnc(NCCc3ccccc3)n2)CC1` is reported as 2.45%.
`CC(=O)Nc1ncc(CN2CCC[C@H](Cc3cc(C)nc(C)c3)C2)s1` gave an inhibition of -19.9%.
`CO[C@H]1CC[C@H](CNc2ccc(S(=O)(=O)NC(=O)c3ccc(N4CCN(CC5=C(c6ccc(Cl)cc6)CC(C)(C)CC5)CC4)cc3Oc3cnc4[nH]ccc4c3)cc2[N+](=O)[O-])CC1` has an inhibition of -6.65%.
With `CN([C@@H]1CCc2c(CC(=O)O)c3ccccc3n2C1)S(=O)(=O)c1ccc(F)cc1` the inhibition was 26.9%.
For `Cc1ncc(-c2cc(Cl)ccc2F)cc1-n1c(=O)n(CC(N)=O)c2ccccc21`, the inhibition was 9.94%.
With `COCCOc1nc(-c2ccc(Cl)nc2)nc2c1CN(C(=O)c1ncn3ccccc13)CC2` the inhibition was 1.51%.
For `c1ccc(N2CCN(Cc3nc4ccccc4[nH]3)CC2)nc1`, the inhibition was 21.7%.
The inhibition of `CN(C)C(=O)c1sc2nc(N3CCC(S(C)(=O)=O)CC3)cc(C(F)(F)F)c2c1N` is reported as -18.6%.
For `Cn1cc(Cl)c2c(Oc3c(F)cc(Nc4cc(Cl)nc(N)n4)cc3F)ccnc21`, the inhibition was 3.48%.
`CC1=C(C#N)C(c2ccc3[nH]nc(C)c3c2)C(C#N)=C(C)N1` gave an inhibition of 21.1%.
The inhibition of `Cc1noc([C@H]2C[C@@H](c3ccc(C(F)(F)F)cc3)CN(C(=O)N3CCS(=O)(=O)C3)C2)n1` is reported as 19.3%.
`Cc1c(NC(=O)c2cc(C(N)=O)nc3cc(F)ccc23)c(C(F)(F)F)nn1Cc1ccc(C#N)cc1` gave an inhibition of -17.8%.
For `O=C(N[C@H]1CCCCC/C=C\C2C[C@@]2(C(=O)O)NC(=O)[C@@H]2C[C@@H](Oc3ccncc3)CN2C1=O)OC1CCCC1` (stereo partly shown), the inhibition was -9.47%.
The inhibition of `COc1ccc2cc(OCC3(C(=O)O)CN(C(=O)c4ccc(F)cc4)C3)ccc2c1` is reported as -19.9%.
With `COc1cc(N[C@@H]2CCCC[C@]2(O)C(F)(F)F)ccc1F` the inhibition was 34.2%.

Series 3
SMILES: NC(N)=NC(=O)c1nc(Cl)c(N2CCCCCC2)nc1N
Effect on: β-arrestin recruitment
Mode: agonist
Technique: PRESTO-Tango
Tested at: 10 µM
Reference: untreated
It gave 0.75 for “fold over basal” (Prostaglandin E2 receptor EP4 subtype (PTGER4, Homo sapiens, UniProt P35408)).
The “fold over basal” was 1.07 (Alpha-1A adrenergic receptor (ADRA1A, Homo sapiens, UniProt P35348)).
The “fold over basal” was 1.67 fold (Orexin receptor type 2 (HCRTR2, Homo sapiens, UniProt O43614)).
The “fold over basal” was 1.21 (Probable G-protein coupled receptor 141 (GPR141, Homo sapiens, UniProt Q7Z602)).
It gave 0.86 for “fold over basal” (C-C chemokine receptor type 10 (CCR10, Homo sapiens, UniProt P46092)).
It gave 0.92 for “fold over basal” (G-protein coupled receptor 52 (GPR52, Homo sapiens, UniProt Q9Y2T5)).
The “fold over basal” was 0.81 (Adhesion G protein-coupled receptor D2 (ADGRD2, Homo sapiens, UniProt Q7Z7M1)).
It gave 0.69 for “fold over basal” (Putative adhesion G protein-coupled receptor F2P (ADGRF2P, Homo sapiens, UniProt Q8IZF7)).

Series 4
Compound: O=C1CCC(N2Cc3cc(C4CCN(Cc5ccccc5)CC4)ccc3C2=O)C(=O)N1 (stereo not shown)
Mode: degrader
Technique: HiBiT
Cells: HEK293
CSNK1A1: Casein kinase I isoform alpha (CSNK1A1, Homo sapiens, UniProt P48729)
Sequence of UniProt P48729 (whole entry, looked up): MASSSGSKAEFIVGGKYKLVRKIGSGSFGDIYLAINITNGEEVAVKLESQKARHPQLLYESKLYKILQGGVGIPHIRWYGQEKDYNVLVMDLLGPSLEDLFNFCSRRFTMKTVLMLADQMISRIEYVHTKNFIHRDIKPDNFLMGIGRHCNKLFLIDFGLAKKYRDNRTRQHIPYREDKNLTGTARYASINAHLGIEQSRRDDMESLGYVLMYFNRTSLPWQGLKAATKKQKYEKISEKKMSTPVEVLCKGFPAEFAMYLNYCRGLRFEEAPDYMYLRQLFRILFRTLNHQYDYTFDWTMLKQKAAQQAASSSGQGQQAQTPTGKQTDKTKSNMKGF
DNA-binding protein Ikaros: DNA-binding protein Ikaros (Homo sapiens, UniProt Q13422)
Sequence of UniProt Q13422 (whole entry, looked up): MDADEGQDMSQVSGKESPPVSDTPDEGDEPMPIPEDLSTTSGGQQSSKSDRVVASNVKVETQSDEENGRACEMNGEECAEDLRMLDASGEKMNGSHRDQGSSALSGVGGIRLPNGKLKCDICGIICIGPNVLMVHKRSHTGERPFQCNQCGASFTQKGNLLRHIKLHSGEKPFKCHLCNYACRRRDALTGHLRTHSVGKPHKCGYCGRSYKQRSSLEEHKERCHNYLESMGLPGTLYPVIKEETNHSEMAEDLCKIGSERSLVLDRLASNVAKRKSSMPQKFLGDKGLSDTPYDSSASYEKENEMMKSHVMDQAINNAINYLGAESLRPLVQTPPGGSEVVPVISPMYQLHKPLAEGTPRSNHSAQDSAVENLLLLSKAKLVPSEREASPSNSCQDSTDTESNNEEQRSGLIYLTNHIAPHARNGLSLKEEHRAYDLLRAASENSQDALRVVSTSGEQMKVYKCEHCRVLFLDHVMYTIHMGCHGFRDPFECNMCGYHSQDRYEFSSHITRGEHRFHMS
Zinc finger protein Aiolos: Zinc finger protein Aiolos (Homo sapiens, UniProt Q9UKT9)
Sequence of UniProt Q9UKT9 (whole entry, looked up): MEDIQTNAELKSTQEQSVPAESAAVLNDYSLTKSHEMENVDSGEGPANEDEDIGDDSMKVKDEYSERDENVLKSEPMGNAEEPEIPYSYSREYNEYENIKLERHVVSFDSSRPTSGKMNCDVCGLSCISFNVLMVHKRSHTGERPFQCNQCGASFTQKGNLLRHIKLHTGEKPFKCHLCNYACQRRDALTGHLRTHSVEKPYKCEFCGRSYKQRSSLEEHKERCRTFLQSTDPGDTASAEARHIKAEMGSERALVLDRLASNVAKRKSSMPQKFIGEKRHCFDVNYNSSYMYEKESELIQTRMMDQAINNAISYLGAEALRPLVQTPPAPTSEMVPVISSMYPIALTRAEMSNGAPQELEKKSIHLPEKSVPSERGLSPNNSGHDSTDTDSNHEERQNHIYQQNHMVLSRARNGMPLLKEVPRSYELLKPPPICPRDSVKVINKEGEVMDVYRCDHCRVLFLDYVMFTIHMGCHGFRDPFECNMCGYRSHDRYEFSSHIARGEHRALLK
CSNK1A1; 0.0001694 µM, 6 h — remaining protein: 107%.
Zinc finger protein Eos (IKZF4, Homo sapiens, UniProt Q9H2S9); 0.004115 µM, 6 h — remaining protein: 112%.
CSNK1A1; 0.004572 µM, 6 h — remaining protein: 86.7%.
The remaining protein was 86.2% (DNA-binding protein Ikaros; 0.3704 µM, 6 h).
Zinc finger protein Aiolos; 0.3704 µM — remaining protein: 82.5% and 84.3%.
For Zinc finger protein Aiolos; 0.01372 µM, 6 h: remaining protein read 85.5%.
For Zinc finger protein Aiolos; 3.333 µM, 6 h: remaining protein read 82.8%.
For Zinc finger protein Aiolos; 0.001524 µM, 6 h: remaining protein read 88.9%.
For DNA-binding protein Ikaros; 0.1235 µM: remaining protein read 97.1% and 94.5%.

Excerpt of the above (series 2):
The inhibition of `CN(C)C(=O)c1sc2nc(N3CCC(S(C)(=O)=O)CC3)cc(C(F)(F)F)c2c1N` is reported as -18.6%.
For `c1ccc(N2CCN(Cc3nc4ccccc4[nH]3)CC2)nc1`, the inhibition was 21.7%.
The inhibition of `COc1ccc2cc(OCC3(C(=O)O)CN(C(=O)c4ccc(F)cc4)C3)ccc2c1` is reported as -19.9%.
`Cc1c(NC(=O)c2cc(C(N)=O)nc3cc(F)ccc23)c(C(F)(F)F)nn1Cc1ccc(C#N)cc1` gave an inhibition of -17.8%.
`CC(=O)Nc1ncc(CN2CCC[C@H](Cc3cc(C)nc(C)c3)C2)s1` gave an inhibition of -19.9%.
`CN1CCN(c2cnc3c(C4CCN(C(=O)c5ccc(OC(F)(F)F)cc5N)CC4)ncnc3c2)CC1` gave an inhibition of -19.7%.
